Experimental data from different studies.
Numbered parts are unrelated; each lists some results of a single study. Positions count from the first letter of the parent shown.
Sequence of UniProt P68036 (whole entry, looked up): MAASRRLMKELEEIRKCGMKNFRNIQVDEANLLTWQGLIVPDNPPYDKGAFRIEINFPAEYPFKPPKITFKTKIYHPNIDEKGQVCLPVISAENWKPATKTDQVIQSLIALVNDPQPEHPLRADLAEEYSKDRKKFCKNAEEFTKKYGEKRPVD
Sequence of UniProt Q969T4 (whole entry, looked up): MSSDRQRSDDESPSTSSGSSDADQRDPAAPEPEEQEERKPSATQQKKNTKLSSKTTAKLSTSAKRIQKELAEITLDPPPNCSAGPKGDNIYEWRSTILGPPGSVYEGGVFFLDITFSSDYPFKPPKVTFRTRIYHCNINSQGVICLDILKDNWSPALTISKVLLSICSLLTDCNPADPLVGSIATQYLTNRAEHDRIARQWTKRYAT
Sequence of UniProt Q712K3 (whole entry, looked up): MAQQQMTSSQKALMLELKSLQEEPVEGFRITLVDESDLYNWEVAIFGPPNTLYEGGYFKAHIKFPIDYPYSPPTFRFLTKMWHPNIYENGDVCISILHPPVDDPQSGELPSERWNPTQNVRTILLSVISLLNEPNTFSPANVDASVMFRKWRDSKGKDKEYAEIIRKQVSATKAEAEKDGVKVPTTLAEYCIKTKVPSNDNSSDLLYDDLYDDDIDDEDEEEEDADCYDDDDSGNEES
Sequence of UniProt Q9NPD8 (whole entry, looked up): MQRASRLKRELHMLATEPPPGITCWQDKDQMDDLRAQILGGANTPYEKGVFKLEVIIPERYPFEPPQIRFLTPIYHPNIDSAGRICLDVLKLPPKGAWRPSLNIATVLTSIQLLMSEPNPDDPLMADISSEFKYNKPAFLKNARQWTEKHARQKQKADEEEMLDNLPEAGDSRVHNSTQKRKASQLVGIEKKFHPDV
Sequence of UniProt Q9Y385 (whole entry, looked up): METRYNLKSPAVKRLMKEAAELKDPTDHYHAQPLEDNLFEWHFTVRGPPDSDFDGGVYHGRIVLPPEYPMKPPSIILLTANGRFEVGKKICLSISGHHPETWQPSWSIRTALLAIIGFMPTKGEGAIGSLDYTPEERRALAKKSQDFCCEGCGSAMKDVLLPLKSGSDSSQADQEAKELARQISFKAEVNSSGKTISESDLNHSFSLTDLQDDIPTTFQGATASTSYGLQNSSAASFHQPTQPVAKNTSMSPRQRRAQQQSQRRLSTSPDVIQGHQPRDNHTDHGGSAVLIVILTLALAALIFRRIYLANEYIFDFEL
Sequence of UniProt P51668 (whole entry, looked up): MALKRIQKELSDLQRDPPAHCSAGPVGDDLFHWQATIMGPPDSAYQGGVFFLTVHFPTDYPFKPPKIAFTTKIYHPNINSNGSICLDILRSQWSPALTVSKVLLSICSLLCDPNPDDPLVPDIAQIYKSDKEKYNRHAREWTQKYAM
Sequence of UniProt Q8N2K1 (whole entry, looked up): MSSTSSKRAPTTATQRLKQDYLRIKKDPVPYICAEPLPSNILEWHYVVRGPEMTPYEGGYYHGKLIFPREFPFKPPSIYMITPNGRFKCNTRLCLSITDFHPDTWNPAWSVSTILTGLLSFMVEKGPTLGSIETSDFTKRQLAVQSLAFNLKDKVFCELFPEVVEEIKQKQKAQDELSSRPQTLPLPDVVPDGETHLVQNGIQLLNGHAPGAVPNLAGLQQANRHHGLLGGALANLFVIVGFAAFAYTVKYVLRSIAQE
Sequence of UniProt Q9H832 (whole entry, looked up): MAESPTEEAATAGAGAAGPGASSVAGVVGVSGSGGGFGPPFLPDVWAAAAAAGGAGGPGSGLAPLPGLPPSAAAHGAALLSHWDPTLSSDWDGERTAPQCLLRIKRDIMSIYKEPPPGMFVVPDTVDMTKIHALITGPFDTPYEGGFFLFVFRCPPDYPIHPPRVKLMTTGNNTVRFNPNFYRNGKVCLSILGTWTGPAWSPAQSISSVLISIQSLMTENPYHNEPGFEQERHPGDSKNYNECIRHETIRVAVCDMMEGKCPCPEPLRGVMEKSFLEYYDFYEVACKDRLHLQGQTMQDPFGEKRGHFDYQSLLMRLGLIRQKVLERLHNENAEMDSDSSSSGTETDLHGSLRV
Sequence of UniProt O00762 (whole entry, looked up): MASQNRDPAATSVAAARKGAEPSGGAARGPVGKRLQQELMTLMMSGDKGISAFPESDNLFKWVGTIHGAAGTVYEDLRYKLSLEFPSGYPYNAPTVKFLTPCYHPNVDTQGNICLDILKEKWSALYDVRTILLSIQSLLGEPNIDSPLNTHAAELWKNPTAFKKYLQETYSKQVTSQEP
Sequence of UniProt P62253 (whole entry, looked up): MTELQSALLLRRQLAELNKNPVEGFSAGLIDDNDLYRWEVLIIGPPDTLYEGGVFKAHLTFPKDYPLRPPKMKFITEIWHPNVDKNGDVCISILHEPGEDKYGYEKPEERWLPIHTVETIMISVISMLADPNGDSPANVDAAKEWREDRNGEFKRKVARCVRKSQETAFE
Sequence of UniProt Q16763 (whole entry, looked up): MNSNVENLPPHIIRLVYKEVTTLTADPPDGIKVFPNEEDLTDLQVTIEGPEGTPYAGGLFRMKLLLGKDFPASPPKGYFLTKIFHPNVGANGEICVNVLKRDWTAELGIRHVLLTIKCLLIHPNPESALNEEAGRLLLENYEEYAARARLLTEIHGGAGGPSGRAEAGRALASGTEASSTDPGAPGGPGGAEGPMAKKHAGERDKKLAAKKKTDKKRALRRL

Set 1 — target: CCNF, cyclin fold, Cln2 fusion (human); technique: yeast growth competition, sequencing; medium: yeast; notes: weak parent motif; reference: not given; direction: higher = stronger binding
Starting sequence: MASTL docking peptide (human); PMIAKNLMCELDE
| Variant | normalised enrichment score |
| --- | --- |
| PMIAKYLMCELDE [N6Y] | -0.272 |
| PMIAKNLMCELQE [D12Q] | 0.289 |
| PMTAKNLMCELDE [I3T] | 0.0229 |
| PMIAKNYMCELDE [L7Y] | -0.191 |
| PMIAKMLMCELDE [N6M] | -0.00832 |
| PMEAKNLMCELDE [I3E] | -0.484 |
| PPIAKNLMCELDE [M2P] | 0.348 |
| PMIAKNLMCWLDE [E10W] | 0.213 |
| PMIAKNLMCELPE [D12P] | -0.397 |
| PMIAKWLMCELDE [N6W] | 0.456 |
| PCIAKNLMCELDE [M2C] | -0.134 |
| PMITKNLMCELDE [A4T] | -0.0888 |
| PMIHKNLMCELDE [A4H] | -0.226 |
| PMIAFNLMCELDE [K5F] | -0.601 |
| PMIAKNRMCELDE [L7R] | -0.0676 |
| PMYAKNLMCELDE [I3Y] | -0.0228 |
| PMIAKNLWCELDE [M8W] | 0.144 |
| PMIAKNLMCVLDE [E10V] | 0.543 |
| PMIAPNLMCELDE [K5P] | -0.335 |
| PMIAKNLMCELIE [D12I] | -0.497 |
| PMIPKNLMCELDE [A4P] | 0.171 |
| PMIEKNLMCELDE [A4E] | -0.27 |
| PMIAKNLMCEPDE [L11P] | -0.00158 |
| PMLAKNLMCELDE [I3L] | 0.153 |

Set 2 — Molecule: B1 (RUFY1 RING domain); technique: yeast two-hybrid; medium: yeast; notes: mostly zero background; reference: not given; direction: higher = stronger interaction
B1: RUFY1 RING domain (UniProt Q96T51); chain QALKGHAWLKDDEATHCRQCEKEFSISRRKHHCRNCGHIFCNTCSSNELALPSYPKPVRVCDSCHTLLLQRCSSTAS
| target | lacZ reporter activity |
| --- | --- |
| UBE2G1 UBC core domain (UniProt P62253) | 0 |
| UBE2Z UBC core domain (UniProt Q9H832) | 0 |
| UBE2E3 UBC core domain (UniProt Q969T4) | 0 |
| UBE2J1 UBC core domain (UniProt Q9Y385) | 0 |
| UBE2T UBC core domain (UniProt Q9NPD8) | 0 |
| UBE2C UBC core domain (UniProt O00762) | 0 |
| UBE2L3 UBC core domain (UniProt P68036) | 0 |
| UBE2J2 UBC core domain (UniProt Q8N2K1) | 0 |
| UBE2S UBC core domain (UniProt Q16763) | 0 |
| UBE2R2 UBC core domain (UniProt Q712K3) | 0 |
| UBE2D1 UBC core domain (UniProt P51668) | 0 |

Set 3 — technique: protein-binding microarray; molecule type: double-stranded DNA, one strand shown; medium: in vitro; concentration: 250 nM; notes: 60-bp whole probe; with: salmon DNA 0.4 mg/ml; reference: random background probes; direction: higher = stronger binding; constant ends, left off below: GCCTAGCAC … GTCTTGATTCGCTTGACGCTGCTG
Target: Interferon regulatory factor 5, full length, phosphomimetic (IRF5, Homo sapiens, UniProt Q13568-2, residues 1-514, K96S/S451D/S453D/S456D/S462D)
| Strand | log fluorescence [z-score] |
| --- | --- |
| TCATTATTTACTCTCTAACTGTGCTAG | 0.865 |
| GACGATATCGGATTTCGAGACGTGCTA | 1.98 |
| TCAGTTTTGTTTTTCATACTGTGCTAG | 2.19 |
| TTAGATTTCGGTTATCGATTAGTGCTA | 9.52 |
| TTAGGACTGGGGCCTGGGTTAGTGCTA | -0.343 |
| GACTATTTCGGGTATCGAGACGTGCTA | 4.81 |
| TCACAGCTATTTTTAGGACTGTGCTAG | 0.0022 |
| CACGGTATCGGACTGGGGACGTGCTAG | 0.81 |
| TTAGGTATCCGTATCGGTTAGTGCTAG | 5.35 |
| TCAGCCCTCGGTTTACAACTGTGCTAG | 0.159 |
| TTCGGTATCGACTTTCGGTTAGTGCTA | 10.3 |
| TCATTTTCCTCTGTCATACTGTGCTAG | 1.43 |
| GAAGGTCTCGGTCTCGGGACGTGCTAG | 0.232 |
| TTAGGTTTCCGTTTCGGTTAGTGCTAG | 9.19 |
| AACGGTCTCCTTCTCCTGACGTGCTAG | -0.112 |
| GCCATTGTGGGTCTTGCAGAGTGCTAG | -0.66 |
| GACGATCTCAGACTGGAGCCGTGCTAG | -0.297 |
| GACGGTCTCCTTCTCCCGACGTGCTAG | -0.174 |
| TCATGAACCATTTTGGTACTGTGCTAG | 0.287 |
| TTACGACTGGACTTTCGGTTAGTGCTA | 9.91 |
| GACGCTTTCAGTTTCGAGACGTGCTAG | 8.7 |
| TCATATATATCATTTAAACTGTGCTAG | 1.25 |
| GACGGACTGCTTCTCCCGACGTGCTAG | -0.645 |
| TTAGGACTGGACTATCGATTAGTGCTA | 5.01 |
| TTAGGTCTGCTTCTCCTTTAGTGCTAG | -0.122 |

Set 4 — technique: RNA Bind-n-Seq; molecule type: RNA; medium: in vitro; concentration: 365 nM; reference: no-protein control; direction: higher = stronger binding
Target: RNA binding protein fox-1 homolog 2, RRM domain, GST-SBP tag (RBFOX2, Homo sapiens, UniProt O43251-10, residues 100-194)
Notes: natural RNA segment, single round, ends assumed
Constant ends, left off below: GGGAGUUCUACAGUCCGACGAUC … UGGAAUUCUCGGGUGCCAA
Target sequence (chain): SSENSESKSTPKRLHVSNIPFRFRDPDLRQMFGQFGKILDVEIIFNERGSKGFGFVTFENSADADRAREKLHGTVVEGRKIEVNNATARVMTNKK
| Strand | RBNS enrichment (R) |
| --- | --- |
| CAUCUGGGCCAUUUGCCUUACUUCUCUGGAGCAUACCCACCCUCAGUUACGUGCCAGACCUGGACCGCAUUCUCCUGCCCUGUCCUGGAGCUGGCCCCUGGCUGCCUGGA | 0.425 |
| CACACUCCCAGGAGAAACUCCCGGUGUGUUUCUGACCCUUUCAGCCCCAUUAAAGCUCCUGAGCUCUCGCUGCCUCCUCUCUCUCUGUUCUUUGCUGCGCCAGAACCCGU | 0.871 |
| UGGAUACUCAUUAAUUCUUUUGUUAAUAUUUAUUUCCAUGAUAGCAUCAUUCCAGCCAGACUUGCUGAAAAUCUACUGGUGAGGCAAAUAUAAUAUAUAUAAAUAUGCUA | 0.46 |
| UGUGUGUCUCCGCCAGAGUCACAGCAGUGCCGAGGUGUCCGCGGCAGACCACACAGACCGUCUGAAAUGCGCCCGCCUGGCGGACAGCUCCCUUCUGAAGCAGAGAAGCC | 0.523 |
| GCCUUGCGGUCAGGGACUGAAUCUUGCCCGUUUAUGUAUGCUCCAUGUCUAGCCCAUCAUCCUGCUUGGAGCAAGUAGGCAGGAGCUCAAUAAAUGUUUGUUGCAUGAAG | 1.86 |
| GGAUGUGAGAAAUGUAAAUUUUAUAACAGCAGUAUUUAUCCUGGUUUAAUUCUAAUACGAUGUCAUGUUAAUUUCAUGUUGUGAUUAAUAAAAGCAUUUUUUCUUCACUC | 0.434 |
| CCUGUGGUCCCACUGCGCAGGGCACAGCCACCUCAGCCACUCCCAGGCUGGACCACACGCUAACCUCCUGAGUGGUUCAGCUGCGUCUGGUCUGGUCAGGGUCCUGCUGC | 0.355 |
| CGCCUUCGGCCAGGCAGCGAUCCACGGACCAAACCUCCUGCGCCCUCAGCCGGUGGGUCACUUCUCCAGUGUCCAGUGCCAUCUUUCUCGACCCUGUUUCUUUCCAUUCA | 0.32 |
| GAGAGGAAACUGGUUUGUAACAAUACUGCAAAUAGAAACCCCAUUUCUACUGAACAUCCUAGUUUUAAACAGAAGAAAAACUGUAAUCCUGGGGUUGGUAUGUAGGAGGU | 0.328 |
| UUCCUCUGUUUUUCACUAAAUAAGCAAAUGAAAACUCUCUCCAUUACCUUCUGCUUUCUCUUUGUCCACUUACGCAGUAGGUGACUGGCAUGUGCCACAGAGCAGGCCCU | 0.955 |
| AUGGUUUCGAAAACUUUCUGUUUUUAUUUUGUCACAGAGCUGUUGUCAUAGUUGAAAUGAUGUUUAUUGUAGAUGGUAUUUGAACUUAUUCUUCUGGAAAUAGUUCAUCA | 0.482 |
| AGGAUCCCUCCUGAAAUCUCCUACUUCUUGUCUGCCACUCACUCUUGAGGACACUGGGCCCCCAUGGAAUCCCUCCAUGCCCUAGCAUGGCUAAAUGCUGAAGGUGGAGG | 0.747 |

Some of these lines once more (set 4):
| Strand | RBNS enrichment (R) |
| --- | --- |
| GAGAGGAAACUGGUUUGUAACAAUACUGCAAAUAGAAACCCCAUUUCUACUGAACAUCCUAGUUUUAAACAGAAGAAAAACUGUAAUCCUGGGGUUGGUAUGUAGGAGGU | 0.328 |
| UUCCUCUGUUUUUCACUAAAUAAGCAAAUGAAAACUCUCUCCAUUACCUUCUGCUUUCUCUUUGUCCACUUACGCAGUAGGUGACUGGCAUGUGCCACAGAGCAGGCCCU | 0.955 |
| AUGGUUUCGAAAACUUUCUGUUUUUAUUUUGUCACAGAGCUGUUGUCAUAGUUGAAAUGAUGUUUAUUGUAGAUGGUAUUUGAACUUAUUCUUCUGGAAAUAGUUCAUCA | 0.482 |
| AGGAUCCCUCCUGAAAUCUCCUACUUCUUGUCUGCCACUCACUCUUGAGGACACUGGGCCCCCAUGGAAUCCCUCCAUGCCCUAGCAUGGCUAAAUGCUGAAGGUGGAGG | 0.747 |
